Results of several laboratories.
Every numbered part comes from another study and shows a few of its results, in no order.

Study 1
Target: Ras GTPase-activating protein-binding protein 1, full length (G3BP1, Homo sapiens, UniProt Q13283)
Chain of UniProt Q13283 (whole entry, looked up): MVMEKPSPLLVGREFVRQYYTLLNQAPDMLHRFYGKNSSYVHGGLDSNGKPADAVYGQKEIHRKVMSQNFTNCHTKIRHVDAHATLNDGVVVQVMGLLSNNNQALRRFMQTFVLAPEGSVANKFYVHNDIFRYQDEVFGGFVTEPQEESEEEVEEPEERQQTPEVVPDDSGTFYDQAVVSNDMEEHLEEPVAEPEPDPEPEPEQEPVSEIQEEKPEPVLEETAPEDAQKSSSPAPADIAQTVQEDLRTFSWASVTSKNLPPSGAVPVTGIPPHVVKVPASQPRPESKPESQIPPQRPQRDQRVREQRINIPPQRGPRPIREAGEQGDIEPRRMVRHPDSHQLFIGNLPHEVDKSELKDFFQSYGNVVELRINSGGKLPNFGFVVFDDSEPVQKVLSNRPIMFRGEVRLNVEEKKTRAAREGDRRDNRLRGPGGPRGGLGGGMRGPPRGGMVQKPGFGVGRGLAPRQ
Technique: RNA Bind-n-Seq
Molecule type: RNA
Sample: in vitro
Concentration: 200 nM
Notes: whole 134-nt RNA, ends assumed
With: 150 mM LiCl
Relative to: input library
Reading: higher = stronger binding
Each molecule: 7-deaza-guanosine replaces G
For `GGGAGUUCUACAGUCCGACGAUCUGGGAGGUGGAUUUUGUUUAUUUUUUUAACUCAUUUCCAGGGGUGGGAAUUUUUUUUUAAUAUGUGUCAUGAAUAAAGUUGUUUUUGAAAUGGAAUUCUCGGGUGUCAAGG`, the log2 enrichment was -0.429.
For `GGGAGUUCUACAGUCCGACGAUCCAAGUCCUGUGCUACACAUCGUAUGUACCGAAUCGGGAAAAGGAAAAGGAAAAGGGAAAGUAUUAUGUUACGCCGUUCGGAUCUGCACUUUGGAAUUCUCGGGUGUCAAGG`, the log2 enrichment was -0.964.
The log2 enrichment of `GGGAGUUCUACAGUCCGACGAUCUGGGAGGUGGAUUUUGUUUAUUUUUUUAGCUCAUUUCCAGGGGUGGGAAUUUUUUUUUAAUAUGUGUCAUGAAUAAAGUUGUUUUCGAAAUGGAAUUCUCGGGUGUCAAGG` is reported as -0.478.
`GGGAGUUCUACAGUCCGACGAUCCCAGGAAGUAAAAACAAAUGGAAAUGCUUCGGAUAGUGGCAGGGGUGGGGGUUGCUAAGGAAAGGGUGGGAUGGGAGUGGGUAAAGAGUUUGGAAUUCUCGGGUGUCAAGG` has a log2 enrichment of 0.157.
For `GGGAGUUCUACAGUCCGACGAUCCUCAAGUCCUGUGCUACACAUCGUAUGUACCGAAUCGGGCCGGGCCGGCCGGGGAAAGUAUUAUGUUACGCCGUUCGGAUCUGCACUUCCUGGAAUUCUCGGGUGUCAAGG`, the log2 enrichment was 0.479.
`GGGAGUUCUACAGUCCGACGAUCCAAGUCCUGUGCUACACAUCGUAUGUACCGAAUCGGGUUUUUGGGAGGGAAAGGGAAAGUAUUAUGUUACGCCGUUCGGAUCUGCACUUCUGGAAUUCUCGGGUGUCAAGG` has a log2 enrichment of 0.00211.
`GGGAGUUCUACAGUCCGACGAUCUCAAGUCCUGUGCUACACAUCGUAUGUACCGAAUCGGGAGGGUUUUUGGGAGGGAAAGUAUUAUGUUACGCCGUUCGGAUCUGCACUUCCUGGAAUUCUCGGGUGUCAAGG` has a log2 enrichment of 0.182.
For `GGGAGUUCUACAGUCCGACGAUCUAACUUUAGAGGAGGAUCUGAUGGAUAUGGCAGUGGACGUGGAUUUGGGGAUGGCUAUAAUGGGUAUGGAGGAGGACCUAGAGGUGGCAAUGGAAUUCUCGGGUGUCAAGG`, the log2 enrichment was -0.175.
`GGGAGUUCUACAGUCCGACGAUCCAAGUCCUGUGCUACACAUCGUAUGUACCGAAUCGGGGUUUGGGGUUUGGGUUUGGAAAGUAUUAUGUUACGCCGUUCGGAUCUGCACUUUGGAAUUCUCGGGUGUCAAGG` gave a log2 enrichment of -0.882.
`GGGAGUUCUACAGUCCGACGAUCAAGUCCUGUGCUACACAUCGUAUGUACCGAAUCGGGGCCCGGGGCCCGGGGCCCGGAAAGUAUUAUGUUACGCCGUUCGGAUCUGCACUUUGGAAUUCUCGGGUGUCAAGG` has a log2 enrichment of -0.72.
`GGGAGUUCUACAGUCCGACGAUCUAACUUUAGAGGAGGAUCUGAUGGAUAUGGCAGUGGACGUGGAUUUGGGGAUGGCUAUAAUGGGUAUGUAGGAGGACCUGGAGGUGGCAAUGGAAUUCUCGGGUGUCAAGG` has a log2 enrichment of -0.00218.

Study 2
Target: Histone acetyltransferase KAT6A, winged helix 2, GST fusion (KAT6A, Homo sapiens, UniProt Q92794, residues 85-181)
Technique: protein binding microarray
Molecule type: double-stranded DNA, one strand shown
Sample: in vitro
Concentration: not given
Notes: 8-mer, flanks averaged, mean of 2 arrays, mostly near background
Relative to: not given
Reading: higher = stronger binding
Construct (chain): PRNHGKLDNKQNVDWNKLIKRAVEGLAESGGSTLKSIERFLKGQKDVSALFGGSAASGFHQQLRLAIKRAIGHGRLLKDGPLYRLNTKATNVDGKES
`CGCCAGCC` gave an E-score of 0.178.
With `ACCTACCG` the E-score was -0.109.
For `GTGCCGTA`, the E-score was 0.09.
For `AGGAGAAC`, the E-score was -0.0775.
The E-score of `AGCGTGCA` is reported as 0.074.
With `AGCCGACG` the E-score was 0.00834.
`TATATCAA` has an E-score of -0.00091.
For `GTATATAA`, the E-score was -0.0559.
For `CACGGGTA`, the E-score was -0.0898.
`CACTCAGC` gave an E-score of -0.077.
`AAAGCTCT` gave an E-score of 0.0164.
`CTACGTAG` gave an E-score of -0.139.
The E-score of `ATCTCGGC` is reported as 0.229.
For `GACCAGCC`, the E-score was 0.107.
`ATAACAAC` gave an E-score of -0.0298.
With `AGGGATTG` the E-score was 0.0665.
`AGACGTCG` has an E-score of -0.0773.
The E-score of `ATACTGGC` is reported as -0.0509.
The E-score of `ACTCTTAA` is reported as -0.188.
For `CTTGATTA`, the E-score was -0.0367.
For `GTACAAGA`, the E-score was -0.196.
`GCACTGCC` has an E-score of 0.142.
With `ACAGCGAA` the E-score was 0.0871.
`GAGACTGA` gave an E-score of 0.128.
`GCTATTGA` gave an E-score of -0.148.

Study 3
Target: RNA binding protein fox-1 homolog 2, RRM domain, GST-SBP tag (RBFOX2, Homo sapiens, UniProt O43251-10, residues 100-194)
Technique: RNA Bind-n-Seq
Molecule type: RNA
Sample: in vitro
Concentration: 365 nM
Notes: natural RNA segment, single round, ends assumed
Relative to: no-protein control
Reading: higher = stronger binding
Construct (chain): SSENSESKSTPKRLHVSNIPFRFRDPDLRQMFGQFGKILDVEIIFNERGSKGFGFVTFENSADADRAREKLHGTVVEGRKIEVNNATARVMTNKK
Under “RBNS enrichment (R)”, `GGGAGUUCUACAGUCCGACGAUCAUUGCCUGCCUCUGCUGUGAAUUAACUUGUUCUGUGUAUUAAACUGGGCCUGACCCCUCUGCCCACGCUGCCUCGUUCUCCCGUCUGGUUUGGGGCAUCACCAAGAAGGAUGGAAUUCUCGGGUGCCAA` is recorded as 1.42.
Under “RBNS enrichment (R)”, `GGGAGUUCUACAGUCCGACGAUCCCCCAUCCCAGCUUUUAGAGGAUCUGCUCCACUGUCUCCUGGGGCAGUUGUGGGUCACUGUCCCUUCCAGCUGCCCCAGACAGGAAGCAGAGUCACCACGCAGCAGUGUCUGGAAUUCUCGGGUGCCAA` is recorded as 0.176.
Under “RBNS enrichment (R)”, `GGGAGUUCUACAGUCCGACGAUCCUGUGAUGGGUUCUGUUUACCUUUUGCAACAUUUUAUAGCUUGUUUAGUGACUAGUGUGUAGUGAGUCACGAUCAAGGCAUCCUUCAGCUUAGCAUUUUCAGUACUCACUUGGAAUUCUCGGGUGCCAA` is recorded as 1.24.
`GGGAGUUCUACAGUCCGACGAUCCAUCUAAAACUGGCCCAGGACACUUGGUGUAUGCGUGACUUGGCUGUGGCUGUCUUUUUUAAUCCUUGUGUAAAGCAGCAAAAAAGACCUAAAGGGAAUUGUAAUUUGGUUGGAAUUCUCGGGUGCCAA`: “RBNS enrichment (R)” 0.839.
Under “RBNS enrichment (R)”, `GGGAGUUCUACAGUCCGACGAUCAUCUUUCUUCCCGCCGCUUGGCUUGAGCCAAGUUUUGUUUUAUAUUAAAAAAGUAUAUAUAAUUAUAUAAAGUUCUUGGAGUCUGCACCGCCAGUGUCGGGAAUGGACCUUGGAAUUCUCGGGUGCCAA` is recorded as 1.46.
`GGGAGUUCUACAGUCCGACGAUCAAAGAUGGAUGUGAUAGUCUAUAUUUGUGUGUUUCUAAAGUUGUGUCUUGUGGGGGAAUUGGAUUCCAUUUUAGUUAUUUAAUACCUCACUCCCACCCACCUGCAUACUGUGGAAUUCUCGGGUGCCAA` — result for “RBNS enrichment (R)”: 0.293.
Under “RBNS enrichment (R)”, `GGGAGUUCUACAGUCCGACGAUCAAGGGGAUCUGAGAAAUUAUGUAAUAGGGAGUGGGAAUAAAACUACUUAAUUCCUGUGGGCAGGUUAUAUUUUAAGUUCAAAUGCAUUGCUUUAACCUUUGGUUACUUUUUGGAAUUCUCGGGUGCCAA` is recorded as 1.42.
For `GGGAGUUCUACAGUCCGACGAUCGUCCUGUGUUCAAGACACUGAAGCUAUCUCCCAUGUUCUGUGUGAGAUUUCUGAGUAAGAUCUGGCAAGUGAGGGAGCUUUUCUUGAGAGGGGAAGGCUACAUUUCUAUGUGGAAUUCUCGGGUGCCAA`, “RBNS enrichment (R)” read 0.635.
For `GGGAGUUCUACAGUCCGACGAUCACUCCAGGGGUGGUGUCUCGGCCGCCCCUACCAGCUGGCUGAGCCCCCUGGCCUCCUGCGCUCCCUCACUUCCCUCAGUUCCCAAAGCUGCCCAGUCCAUGGGGACAGAAUGGAAUUCUCGGGUGCCAA`, “RBNS enrichment (R)” read 0.245.
`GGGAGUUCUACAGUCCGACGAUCCAGGGGCUUGGCUGCCCCAUUCCAGCUCUCCCAUGGAGCCCCUCCACCGGGCGCAUGCCUCCCAGGCCACCUCAGUCUCACCUGCCGGCUCUGGGCUGGCUGCUCCUAACUGGAAUUCUCGGGUGCCAA`: “RBNS enrichment (R)” 0.587.
For `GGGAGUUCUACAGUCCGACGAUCUUGGAACAGCCAUGCCUUCCAAAAGCUAUCAACCUGGGCCCUGAGCCCUGUAAGCAGAUGCCCCAGAGCUGGGGUGUGAGAGAGGGGCUGGGGGACCCCACGAUACAGCCUGGAAUUCUCGGGUGCCAA`, “RBNS enrichment (R)” read 0.425.
`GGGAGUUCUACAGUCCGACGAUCAAUCGAUAAUAAAUGAUGGCUUGAUACACUACAGAAAGUGUAUUCUUGUUUAAAAGAUGUCUGAAACCUUUUUAUGGCGUGUUUGUAUUAAAAAUAAAGUAUAGAGGCCAUGGAAUUCUCGGGUGCCAA`: “RBNS enrichment (R)” 0.371.

Study 4
Target: Sal-like protein 4, full length isoform B (SALL4, Homo sapiens, UniProt Q9UJQ4-2, residues 1-616)
Technique: universal PBM
Molecule type: double-stranded DNA, one strand shown
Sample: in vitro
Concentration: not given
Notes: 8-mer, flanks averaged, mean of replicates
Reading: higher = stronger binding
Residues (chain): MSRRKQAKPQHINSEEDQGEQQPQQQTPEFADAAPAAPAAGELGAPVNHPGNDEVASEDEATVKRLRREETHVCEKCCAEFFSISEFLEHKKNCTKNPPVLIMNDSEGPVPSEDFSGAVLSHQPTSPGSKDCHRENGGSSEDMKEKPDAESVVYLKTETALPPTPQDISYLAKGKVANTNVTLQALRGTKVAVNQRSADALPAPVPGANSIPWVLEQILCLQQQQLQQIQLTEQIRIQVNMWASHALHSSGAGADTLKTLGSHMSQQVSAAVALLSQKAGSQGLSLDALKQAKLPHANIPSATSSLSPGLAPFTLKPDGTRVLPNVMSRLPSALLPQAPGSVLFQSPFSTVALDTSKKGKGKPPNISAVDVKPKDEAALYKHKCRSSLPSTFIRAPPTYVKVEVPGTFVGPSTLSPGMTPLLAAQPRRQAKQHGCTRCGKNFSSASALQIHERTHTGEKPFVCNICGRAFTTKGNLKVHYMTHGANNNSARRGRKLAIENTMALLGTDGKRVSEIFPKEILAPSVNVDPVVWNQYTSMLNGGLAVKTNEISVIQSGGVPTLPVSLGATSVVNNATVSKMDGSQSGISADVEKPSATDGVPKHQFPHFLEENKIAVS
With `GCAAAAAC` the E-score was 0.138.
`ACCAGTCC` gave an E-score of -0.361.
`GTTCGGCA` has an E-score of 0.0393.
For `GCACCAGA`, the E-score was -0.187.
`CGAGCACA` has an E-score of -0.00567.
With `CGGAGCAA` the E-score was 0.0443.
With `AGTATGGG` the E-score was -0.0345.
With `ACTTGCCG` the E-score was -0.143.
`AAATTGAC` has an E-score of 0.156.
For `CTTGTTAA`, the E-score was 0.0697.
`GCGTATGA` has an E-score of 0.0943.
The E-score of `AATCTAAT` is reported as 0.198.
With `GCAGTGAA` the E-score was 0.0944.
With `CTTGCGGC` the E-score was -0.269.
The E-score of `ACAAGCAC` is reported as -0.0402.
`CGGAGACC` gave an E-score of -0.249.
`AGGACTTC` has an E-score of -0.137.

Repeated from above (study 4):
`AAATTGAC` has an E-score of 0.156.
For `CTTGTTAA`, the E-score was 0.0697.
`GCGTATGA` has an E-score of 0.0943.
The E-score of `AATCTAAT` is reported as 0.198.
With `GCAGTGAA` the E-score was 0.0944.
With `CTTGCGGC` the E-score was -0.269.
